Assay results collected from several papers.
Every numbered part comes from another study and shows a few of its results, in no order. Changes are numbered by the printed parent chain.

Series 1
Target: ABI1, truncated, D143A, DHFR fusion (Arabidopsis thaliana)
Method: DHFR PCA, deep sequencing
Medium: yeast
Notes: methotrexate growth selection, single substitutions
Together with: (+)-ABA 0.0091 µM
Baseline: wild-type fitted maximum
Reading: higher = stronger binding
Endpoint: relative binding score
Starting sequence: PYL1, truncated, DHFR fusion (Arabidopsis thaliana); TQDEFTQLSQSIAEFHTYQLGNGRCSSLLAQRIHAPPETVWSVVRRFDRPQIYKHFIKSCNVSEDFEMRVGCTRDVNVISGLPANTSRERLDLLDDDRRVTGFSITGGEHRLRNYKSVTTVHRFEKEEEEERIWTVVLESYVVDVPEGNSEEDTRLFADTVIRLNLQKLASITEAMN
Change = E129W; value = 6.95%
Change = G107C; value = 7.74%
Change = K116P; value = -1.78%
Change = S26I; value = 1.52%
Change = G71M; value = 1.66%
Change = K58E; value = 14.1%
Change = R98H; value = 0.71%
Change = M68V; value = 8.94%
Change = A170E; value = 3.71%
Change = R123S; value = 50.5%
Change = C60A; value = -3.3%
Change = T86R; value = 15.1%
Change = R24I; value = 0.259%
Change = N61P; value = -1.57%
Change = P50M; value = -1.41%
Change = R98E; value = -3.95%

Series 2
Target: RNA binding protein fox-1 homolog 2, RRM domain, GST-SBP tag (RBFOX2, Homo sapiens, UniProt O43251-10, residues 100-194)
Method: RNA Bind-n-Seq
Molecule type: RNA
Medium: in vitro
Concentration: 365 nM
Notes: natural RNA segment, single round, ends assumed
Baseline: no-protein control
Reading: higher = stronger binding
Endpoint: RBNS enrichment (R)
Constant ends, left off below: GGGAGUUCUACAGUCCGACGAUC … UGGAAUUCUCGGGUGCCAA
Target sequence (chain): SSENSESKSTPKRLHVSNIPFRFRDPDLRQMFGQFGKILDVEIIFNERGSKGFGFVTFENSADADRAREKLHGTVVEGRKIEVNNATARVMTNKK
Strand = CUUUUUCCCUUGGAUCAGCCAAGCGAAACUUGGAGCUUUGACAAGGAACUUUCCUAAGAAACCGCUGAUAACCAGGACAAAACACAACCAAGGGUACACGCAGGCAUGCA; value = 3.33
Strand = CCUAACAAGCAAUCUGGGACCUGAUUUUCCACCUUUUUUCUCUUUUCUUCCCUUCCUUUGUUUUCAUAAGCCUUUGGUAUCUUUCCUGCCCUUUUCCUUUGUGUACUCUA; value = 1.35
Strand = GUGGGCAGGGUGUUCUUUCUUCACAUUUUUCUUCCCUUUUUUCCCCAUUUUUAAAUAGUACUUUCUUUGAGUCAUAAAUUGUAUCUAACCAUCUUGGGUUCUGGUCAGUG; value = 0.805
Strand = CCUCUGAGAAUUGGCUGCUGUUUCUAAUAUAAUUAUUUUCUAAGAUAGCCAGAUAGUUAGAAAAAGAUUUUCAUUGAUGACAUAUCUUUAAACUUUCUUGCAUCAGUAUU; value = 0.419
Strand = AGGGCACGGAAAAUCUUAUGCUGCUCCGUCAUAAACCUACACCAAUGCCCAGCAAUCACCCUCCUCACUUCCUUGUCUAGAUGUAGAGGUCAGGCUGCUGAACCAGCCAA; value = 0.334
Strand = CCUUUGUGGGUGACUUCAGGCUUCCCGCUUUCGUGGUGCUCUUCCUGGGAUUCGUUUUUUUAUUACCCUCCCUCCCUACUUGUAGGCCUCAGCUAUGGCUUGACGUAAUC; value = 0.348
Strand = CAAGGUGAUGUUAAGGGCAUAGAAGGGGCAUAUUUGUCUUCAGUUGAAUGCCAUUGUGUGCCAGUUGCUCCCCUACCUCUGAUGACAUCUCUGUUCUCCCUGGGAAAGGU; value = 0.357
Strand = GGGUUAGAAUUGGAAGGGAAGAGGAAAGAUGAGCAGAGUAGAGAGAUUUAACAAAUCACUUCCUUCAUCCUUGUUGUUAUGGAAACCGUUGCCAGAGCUGGAAGUUUCCA; value = 0.923
Strand = GAAUAGUGGAGUUAUAGAGAAGGGCCAGUCCUAAGAUGGAAGGAGCCCUACAAUCUGACUCCUUCUAGGGACUCUGGGGCUAGCUUUGUGGGAGAGUCAGCCCUGCCCCU; value = 0.549
Strand = AGACCUGUUUUUGAAAGGACAGCACAGGAGGAGAAAAGUGACUGGGACGAUGCUUCCUCUCAUCCAAAACACAUGCAGAGUCACAUCCUCAUCCUAGUGUUUGGCAGUUU; value = 0.507
Strand = GUUGAUAUAUACCUUCUGUAAAUAACUUUUUUUGAGAAGGAAAUAAAAUCAGCUGGAACUGAACCCUAAAUCUUGACUUUUGUCGUUAUUAUGCCCAAUGCCUAAGAUUG; value = 0.35
Strand = GAUGGUUGUCUUCAUAUAGAGUCACAUGGUUUCUCUUUUUAUGCAGAUAUUUAUAAUCUUCAUCCUAUAUCAGUAGGAAUAACUAUAAGGUGCACUACAAAAAGAUGUAU; value = 0.374

Series 3
Target: Fragile X messenger ribonucleoprotein 1, C-terminal low-complexity region (Fmr1, Mus musculus, UniProt P35922)
Method: RNA Bind-n-Seq
Molecule type: RNA
Medium: in vitro
Concentration: 200 nM
Notes: whole 134-nt RNA, ends assumed
Together with: 150 mM LiCl
Baseline: input library
Reading: higher = stronger binding
Endpoint: log2 enrichment
Each molecule: 7-deaza-guanosine replaces G
Constant ends, left off below: GGGAGUUCUACAGUCCGACGAUC … UGGAAUUCUCGGGUGUCAAGG
Strand = UGCUGGAGAUGCAAUAUAUGAGGUGGUGAGUCUACAGCGAGAGUCUGACAAGGAGGAACCAGUCACUCCUACUAGUGGAGGGGGUCCAAU; value = -4.45
Strand = CUCAAGUCCUGUGCUACACAUCGUAUGUACCGAAUCGGGGUUGGUUGGGUUGGAAAGUAUUAUGUUACGCCGUUCGGAUCUGCACUUCCA; value = -0.547
Strand = AAGUCCUGUGCUACACAUCGUAUGUACCGAAUCGGGUGGGAAAAAAAGGGAAAGGGAAAGUAUUAUGUUACGCCGUUCGGAUCUGCACUU; value = -0.129
Strand = UCAGCAACCACCUCAACUCAUUGACUCCGCCAACAUCCGUCAGGAGGAUGCCUUUGAUAACAACAGUGACAUUGCUGAAGAUGGUGGCCA; value = -0.607
Strand = CAAGUCCUGUGCUACACAUCGUAUGUACCGAAUCGGGAAAAAGGGAAAGGGAGGGAAAGUAUUAUGUUACGCCGUUCGGAUCUGCACUUC; value = -0.337
Strand = UUGCAGAUGAGCUUAUGGGGGGCAAUCUUAAAAAGUCCACAGCAGAUGCAUCCGGCUCGAGGGGCCAUCAGCUUUGAAUAAAUGCUUGUU; value = -1.32
Strand = UGGGAGGUGGAUUUUGUUUAUUUUUUUAGCUCAUUUCCAGGGGUGGGAAUUUUUUUUUAAUAUGUGUCAUGAAUAAAGUUGAUUUUGAAA; value = 0.0747
Strand = CAAGUCCUGUGCUACACAUCGUAUGUACCGAAUCGGGAAAAAAAGGGAGGGAGGGAAAGUAUUAUGUUACGCCGUUCGGAUCUGCACUUC; value = -0.593
Strand = CUGUGCUACACAUCGUAUGUACCGAAUCGGGGUUUUUUUGGGUUUUUUUGGUUUUUUUGGGAAAGUAUUAUGUUACGCCGUUCGGAUCUG; value = 0.505
Strand = CCUGUGCUACACAUCGUAUGUACCGAAUCAAAUUUUUUUAAACCCCCCCAAAUUUUUAAAAAAGUAUUAUGUUACGCCGUUCGGAUCUGC; value = 0.646
Strand = UCGGAUGGCUUCGCAUUUCCCCAAUACCCCAUUAAACCGUAUCAUCUGAAGAGGAUCCACAGAGCUGUCUUACAUGGUAAUCUAGAGAAA; value = 1.07

Series 4
Target: Interferon regulatory factor 5, full length, phosphomimetic (IRF5, Homo sapiens, UniProt Q13568-2, residues 1-514, K96S/S451D/S453D/S456D/S462D)
Method: protein-binding microarray
Molecule type: double-stranded DNA, one strand shown
Medium: in vitro
Concentration: 250 nM
Notes: 60-bp whole probe
Together with: salmon DNA 0.4 mg/ml
Baseline: random background probes
Reading: higher = stronger binding
Endpoint: log fluorescence
Constant ends, left off below: GCCTAGCAC … GTCTTGATTCGCTTGACGCTGCTG
Strand = TCATTTTTCTAATTGAAACTGTGCTAG; value = 1.33 z-score
Strand = TTAGATCTCAGAATCGATTAGTGCTAG; value = 0.637 z-score
Strand = TTGGATCTCAGACTGGATTAGTGCTAG; value = -0.121 z-score
Strand = TTAGGTTCCGGTTACGGTTAGTGCTAG; value = 2.26 z-score
Strand = TCATGCTTGCGTCTGGGACTGTGCTAG; value = -0.0969 z-score
Strand = GACGATTTCAGTTCCGATACGTGCTAG; value = 2.54 z-score
Strand = GACGATTTCGGTTTTCGAGACGTGCTA; value = 7.44 z-score
Strand = GACGGACTGGACTTTCGGGGCGTGCTA; value = 2.73 z-score
Strand = GACGAACTGGGGTTTCTAGACGTGCTA; value = -0.132 z-score
Strand = CTCAGTTTATTTATTTTTACGTGCTAG; value = 0.692 z-score
Strand = GACGGTCACCTTTTCCTGACGTGCTAG; value = 0.244 z-score
Strand = TTAGGTCTGGGGTTTCGGTTAGTGCTA; value = 6.19 z-score
Strand = GACGGTATAGGACTGGGGACGTGCTAG; value = -0.284 z-score
Strand = TCAATCTTCAAGACTCATACTGTGCTA; value = 0.561 z-score
Strand = TTAGGTAACGGTTTCGGTTAGTGCTAG; value = 8.38 z-score
Strand = GCGCCTTGATGTCTGGGTCTGTGCTAG; value = -0.206 z-score
Strand = CTGCTAGGGCACACAAGTCAGTGCTAG; value = -0.92 z-score
Strand = GAGGATTTCAGTCTCGAGACGTGCTAG; value = 0.898 z-score
Strand = TCCATTATTGCTTCCTCTTTGTGCTAG; value = 0.853 z-score
Strand = TTAGATATCGGGACTGGCTTAGTGCTA; value = 1.07 z-score
Strand = GACGGACTGGGGACTGGGGACGTGCTA; value = -0.453 z-score

Series 5
Target: CCNB3, cyclin fold, Cln2 fusion (human)
Method: yeast growth competition, sequencing
Medium: yeast
Notes: weak parent motif
Baseline: not given
Reading: higher = stronger binding
Endpoint: normalised enrichment score
Starting sequence: CUX1 docking peptide (human); SRIRRELFIEEIQ; partner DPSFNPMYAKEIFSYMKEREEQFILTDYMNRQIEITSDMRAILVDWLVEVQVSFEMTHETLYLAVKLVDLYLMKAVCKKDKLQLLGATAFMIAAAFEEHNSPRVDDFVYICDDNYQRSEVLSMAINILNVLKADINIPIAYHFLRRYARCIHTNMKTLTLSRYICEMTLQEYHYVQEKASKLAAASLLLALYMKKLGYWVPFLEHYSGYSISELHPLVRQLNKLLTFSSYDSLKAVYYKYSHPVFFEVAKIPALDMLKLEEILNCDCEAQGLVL
Change = SRIARELFIEEIQ [R4A]; value = -0.0911
Change = SRIRRELAIEEIQ [F8A]; value = 0.509
Change = SRIRREAFIEEIQ [L7A]; value = -0.204
Change = SRIRRALFIEEIQ [E6A]; value = 1.11
Change = SRIRKELFIEEIQ [R5K]; value = 0.306
Change = SRIRRELFIAEIQ [E10A]; value = 0.366
Change = SRIRRELFAEEIQ [I9A]; value = -0.153
Change = ARIRRELFIEEIQ [S1A]; value = 0.243
Change = SRIRAEAFIEEIQ [R5A L7A]; value = -0.118
Change = SRIRKELLIEEIQ [R5K F8L]; value = 0.273

For quick reference, copied from above (series 2):
Strand = CCUAACAAGCAAUCUGGGACCUGAUUUUCCACCUUUUUUCUCUUUUCUUCCCUUCCUUUGUUUUCAUAAGCCUUUGGUAUCUUUCCUGCCCUUUUCCUUUGUGUACUCUA; value = 1.35
Strand = GUGGGCAGGGUGUUCUUUCUUCACAUUUUUCUUCCCUUUUUUCCCCAUUUUUAAAUAGUACUUUCUUUGAGUCAUAAAUUGUAUCUAACCAUCUUGGGUUCUGGUCAGUG; value = 0.805
Strand = CCUCUGAGAAUUGGCUGCUGUUUCUAAUAUAAUUAUUUUCUAAGAUAGCCAGAUAGUUAGAAAAAGAUUUUCAUUGAUGACAUAUCUUUAAACUUUCUUGCAUCAGUAUU; value = 0.419
Strand = AGGGCACGGAAAAUCUUAUGCUGCUCCGUCAUAAACCUACACCAAUGCCCAGCAAUCACCCUCCUCACUUCCUUGUCUAGAUGUAGAGGUCAGGCUGCUGAACCAGCCAA; value = 0.334
Strand = CCUUUGUGGGUGACUUCAGGCUUCCCGCUUUCGUGGUGCUCUUCCUGGGAUUCGUUUUUUUAUUACCCUCCCUCCCUACUUGUAGGCCUCAGCUAUGGCUUGACGUAAUC; value = 0.348
Strand = CAAGGUGAUGUUAAGGGCAUAGAAGGGGCAUAUUUGUCUUCAGUUGAAUGCCAUUGUGUGCCAGUUGCUCCCCUACCUCUGAUGACAUCUCUGUUCUCCCUGGGAAAGGU; value = 0.357
Strand = GGGUUAGAAUUGGAAGGGAAGAGGAAAGAUGAGCAGAGUAGAGAGAUUUAACAAAUCACUUCCUUCAUCCUUGUUGUUAUGGAAACCGUUGCCAGAGCUGGAAGUUUCCA; value = 0.923
Strand = GAAUAGUGGAGUUAUAGAGAAGGGCCAGUCCUAAGAUGGAAGGAGCCCUACAAUCUGACUCCUUCUAGGGACUCUGGGGCUAGCUUUGUGGGAGAGUCAGCCCUGCCCCU; value = 0.549
Strand = AGACCUGUUUUUGAAAGGACAGCACAGGAGGAGAAAAGUGACUGGGACGAUGCUUCCUCUCAUCCAAAACACAUGCAGAGUCACAUCCUCAUCCUAGUGUUUGGCAGUUU; value = 0.507
Strand = GUUGAUAUAUACCUUCUGUAAAUAACUUUUUUUGAGAAGGAAAUAAAAUCAGCUGGAACUGAACCCUAAAUCUUGACUUUUGUCGUUAUUAUGCCCAAUGCCUAAGAUUG; value = 0.35
Strand = GAUGGUUGUCUUCAUAUAGAGUCACAUGGUUUCUCUUUUUAUGCAGAUAUUUAUAAUCUUCAUCCUAUAUCAGUAGGAAUAACUAUAAGGUGCACUACAAAAAGAUGUAU; value = 0.374
